Assay results gathered from unrelated publications.
Parts stem from different laboratories: compare values within a part only.
Chain of UniProt O14976 (whole entry, looked up): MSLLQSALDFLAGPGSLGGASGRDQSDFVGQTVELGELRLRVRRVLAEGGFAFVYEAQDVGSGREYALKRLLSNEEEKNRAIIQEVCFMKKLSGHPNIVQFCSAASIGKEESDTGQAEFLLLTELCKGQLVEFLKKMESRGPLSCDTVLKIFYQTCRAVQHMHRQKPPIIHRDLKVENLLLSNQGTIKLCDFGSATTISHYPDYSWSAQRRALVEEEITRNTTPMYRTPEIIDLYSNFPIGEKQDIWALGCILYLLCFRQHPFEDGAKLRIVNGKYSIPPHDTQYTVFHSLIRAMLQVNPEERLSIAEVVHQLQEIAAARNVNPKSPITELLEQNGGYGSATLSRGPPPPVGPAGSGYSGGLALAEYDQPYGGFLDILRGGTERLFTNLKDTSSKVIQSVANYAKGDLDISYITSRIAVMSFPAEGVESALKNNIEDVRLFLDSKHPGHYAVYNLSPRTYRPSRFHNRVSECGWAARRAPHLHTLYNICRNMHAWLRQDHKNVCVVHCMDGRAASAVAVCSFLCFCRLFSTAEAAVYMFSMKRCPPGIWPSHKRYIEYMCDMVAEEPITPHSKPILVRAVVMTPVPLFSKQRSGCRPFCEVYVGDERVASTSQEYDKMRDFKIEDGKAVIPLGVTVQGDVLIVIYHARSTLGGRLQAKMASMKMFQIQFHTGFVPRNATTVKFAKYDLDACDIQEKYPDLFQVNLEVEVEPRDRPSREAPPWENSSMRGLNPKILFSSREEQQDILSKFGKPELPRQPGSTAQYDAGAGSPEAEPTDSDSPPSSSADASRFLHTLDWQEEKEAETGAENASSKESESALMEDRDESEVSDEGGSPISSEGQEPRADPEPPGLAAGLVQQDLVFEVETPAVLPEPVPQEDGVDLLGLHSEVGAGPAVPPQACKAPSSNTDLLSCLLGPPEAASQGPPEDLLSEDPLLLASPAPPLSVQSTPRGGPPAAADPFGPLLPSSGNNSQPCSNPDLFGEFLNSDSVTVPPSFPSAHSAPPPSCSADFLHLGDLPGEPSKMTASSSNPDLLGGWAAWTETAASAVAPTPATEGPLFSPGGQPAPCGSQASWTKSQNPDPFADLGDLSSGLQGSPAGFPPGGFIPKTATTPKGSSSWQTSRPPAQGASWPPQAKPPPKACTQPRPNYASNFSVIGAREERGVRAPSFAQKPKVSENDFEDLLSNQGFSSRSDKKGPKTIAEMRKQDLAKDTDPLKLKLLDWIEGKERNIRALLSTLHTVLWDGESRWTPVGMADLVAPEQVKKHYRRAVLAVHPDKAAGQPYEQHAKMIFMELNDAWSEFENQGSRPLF
Chain of UniProt P78356 (whole entry, looked up): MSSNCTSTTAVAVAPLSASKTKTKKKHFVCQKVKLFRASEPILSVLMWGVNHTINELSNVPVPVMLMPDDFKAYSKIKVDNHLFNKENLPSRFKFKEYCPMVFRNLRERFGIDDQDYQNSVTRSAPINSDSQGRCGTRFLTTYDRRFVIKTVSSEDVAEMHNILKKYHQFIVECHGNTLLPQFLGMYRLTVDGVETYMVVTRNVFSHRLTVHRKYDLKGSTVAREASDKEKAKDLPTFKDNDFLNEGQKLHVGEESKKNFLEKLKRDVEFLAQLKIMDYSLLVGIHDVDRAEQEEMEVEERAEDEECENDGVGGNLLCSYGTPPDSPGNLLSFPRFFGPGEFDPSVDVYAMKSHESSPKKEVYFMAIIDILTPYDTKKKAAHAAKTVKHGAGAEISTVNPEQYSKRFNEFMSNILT

Sample 1 — technique: aptamer microarray, sandwich; form: DNA with 2'F-ANA; medium: in vitro; tested at: 200 nM; together with: Cy3 exosite-II aptamer, 400 nM; direction: higher = stronger binding; endpoint: mean fluorescence intensity; oligonucleotide: GGTTGGTGTGGTTGG
Target: Prothrombin, mature alpha-thrombin (F2, Homo sapiens, UniProt P00734)
Notes: whole 15-mer aptamer, many near background
2'F-ANA at 1 2 3 4 5 6 8 9 12 13 14 15: 51.1 a.u.
2'F-ANA at 3 6 8 9 10 14 15: 431 a.u.
2'F-ANA at 1 2 3 4 5 6 8 10 11: 69 a.u.
2'F-ANA at 1 6 8 10 11: 53.3 a.u.
2'F-ANA at 1 4 5 8 9 10 11 12 13 15: 43.2 a.u.
2'F-ANA at 2 3 7 8 9 11 12 13: 828 a.u.
2'F-ANA at 1 6 7 8 12: 453 a.u.
2'F-ANA at 2 6 7 12 13: 544 a.u.

Sample 2 — read-out: cell-free assay; technique: competition with immobilised ligand; tested at: 1 µM; endpoint: remaining binding
SMILES: CN(C)C(=O)Cn1cc(-c2nc([C@@](C)(c3ccc(-c4cnc(N)nc4)cc3)C3CC3)no2)cn1
Phosphatidylinositol 5-phosphate 4-kinase type-2 beta (PIP4K2B, Homo sapiens, UniProt P78356): 100%
Epidermal growth factor receptor (EGFR, Homo sapiens, UniProt P00533, A750P/del747-749): 100%
Cyclin-G-associated kinase (GAK, Homo sapiens, UniProt O14976): 100%

Sample 3 — technique: RNA Bind-n-Seq; form: RNA; medium: in vitro; tested at: 1 µM; notes: whole 134-nt RNA, ends assumed; together with: 150 mM KCl; reference: input library; direction: higher = stronger binding; endpoint: log2 enrichment
Target: Ras GTPase-activating protein-binding protein 1, RRM domain (G3BP1, Homo sapiens, UniProt Q13283)
Chain of UniProt Q13283 (whole entry, looked up): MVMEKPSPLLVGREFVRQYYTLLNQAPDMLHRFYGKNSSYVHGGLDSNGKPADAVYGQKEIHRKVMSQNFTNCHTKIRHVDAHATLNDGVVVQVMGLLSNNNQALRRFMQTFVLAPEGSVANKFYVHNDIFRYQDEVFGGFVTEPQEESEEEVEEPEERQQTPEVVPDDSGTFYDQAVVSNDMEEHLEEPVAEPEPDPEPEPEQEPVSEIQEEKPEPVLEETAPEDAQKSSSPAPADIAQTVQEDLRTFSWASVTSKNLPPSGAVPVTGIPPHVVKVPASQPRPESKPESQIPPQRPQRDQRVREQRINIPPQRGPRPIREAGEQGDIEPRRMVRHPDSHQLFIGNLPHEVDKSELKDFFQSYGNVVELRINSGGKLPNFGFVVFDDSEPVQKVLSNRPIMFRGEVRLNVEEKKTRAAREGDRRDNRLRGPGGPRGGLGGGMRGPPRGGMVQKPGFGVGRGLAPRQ
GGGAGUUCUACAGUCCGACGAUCCAAGUCCUGUGCUACACAUCGUAUGUACCGAAUCGGGUUUGGGGUUUGGGGUUUGGAAAGUAUUAUGUUACGCCGUUCGGAUCUGCACUUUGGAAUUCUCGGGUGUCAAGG: -0.462
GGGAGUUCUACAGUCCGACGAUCCCUGUGCUACACAUCGUAUGUACCGAAUCGGGAAAAAAAGGGGAAAAAAAGGAAAAAAAGGAAAGUAUUAUGUUACGCCGUUCGGAUCUGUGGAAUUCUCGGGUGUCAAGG: 0.0439
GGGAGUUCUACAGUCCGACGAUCAAGUCCUGUGCUACACAUCGUAUGUACCGAAUCGGGGCCCCGGGCCCCGGCCCCGGAAAGUAUUAUGUUACGCCGUUCGGAUCUGCACUUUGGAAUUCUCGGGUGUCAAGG: -0.542
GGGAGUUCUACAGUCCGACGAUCUCAAGUCCUGUGCUACACAUCGUAUGUACCGAAUCGGGGCCGGGGCCGGGCCGGAAAGUAUUAUGUUACGCCGUUCGGAUCUGCACUUCCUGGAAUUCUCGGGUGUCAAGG: -1.32
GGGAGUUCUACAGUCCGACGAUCUCAAGUCCUGUGCUACACAUCGUAUGUACCGAAUCGGGCCGGGGCCGGGCCGGGAAAGUAUUAUGUUACGCCGUUCGGAUCUGCACUUCCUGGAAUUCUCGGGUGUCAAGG: -0.687
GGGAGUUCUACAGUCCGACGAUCACCAUGCAGGUGGGCAUCUUUGGGAAGUGGGGCAAGGGGGGGAUAGGGAGGGGGGUAACACUUUGGGAACAGGUGGUCCCAGGUCCUUUCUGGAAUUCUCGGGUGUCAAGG: 0.669
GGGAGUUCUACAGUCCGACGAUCAGUCCUGUGCUACACAUCGUAUGUACCGAAUCGGUUUUGGGGUUUUGGGGUUUUGGGGAAAGUAUUAUGUUACGCCGUUCGGAUCUGCACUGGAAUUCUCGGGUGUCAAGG: 0.0179
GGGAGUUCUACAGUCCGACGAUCAAGUCCUGUGCUACACAUCGUAUGUACCGAAUCGGGGUGGGGUUUUUGGGGUGGGGAAAGUAUUAUGUUACGCCGUUCGGAUCUGCACUUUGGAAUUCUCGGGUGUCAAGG: 1.08

Other studies, line by line
CCOC(=O)[C@@H]1CSCC(=O)N[C@@H](CC)C(=O)N(C)[C@@H](C)C(=O)N[C@@H](CC(C)C)C(=O)N2CCC[C@@H]2C(=O)N(CC)CC(=O)N[C@H](CC(C)C)C(=O)N(C)[C@@H](C)C(=O)N[C@@H](CC(C)C)C(=O)N1C
logD (hydrocarbon/water): 0.087

Repeated from above (sample 1):
2'F-ANA at 2 3 7 8 9 11 12 13: 828 a.u.
2'F-ANA at 1 6 7 8 12: 453 a.u.
